Measured values from different studies.
Parts stem from different laboratories: compare values within a part only. “And” joins repeats or separate records; there may be more than shown.

Sample 1 — effect on: binding; technique: radioligand binding; tested at: 10 µM
Target: D(1B) dopamine receptor (DRD5, Homo sapiens, UniProt P21918)
SMILES | inhibition [%]
O=C(NC[C@@H]1[C@H]2CN(C(=O)OCc3cc(C(F)(F)F)cc(C(F)(F)F)c3)C[C@@H]12)c1ccc2[nH]nnc2c1 | 21.6
CN([C@@H]1CCc2c(CC(=O)O)c3cc(S(C)(=O)=O)ccc3n2C1)S(=O)(=O)c1ccc(F)cc1 | -6.04
COCCc1ccc(-c2c(C)nc3c(N4CCOCC4)ccnn23)cn1 | 25.3

Sample 2 — technique: RNA Bind-n-Seq; form: RNA; medium: in vitro; tested at: not given; notes: RNA with constant flanks, ends assumed; baseline: input RNA pool; reading: higher = stronger binding
Target: RING finger protein unkempt homolog, zinc fingers 1-6, GST-SBP tag (UNK, Homo sapiens, UniProt Q9C0B0, residues 30-357)
Constant ends, left off below: GGGAGUUCUACAGUCCGACGAUC … CAACAGAGGAUUGAGCAUCA
Construct (chain): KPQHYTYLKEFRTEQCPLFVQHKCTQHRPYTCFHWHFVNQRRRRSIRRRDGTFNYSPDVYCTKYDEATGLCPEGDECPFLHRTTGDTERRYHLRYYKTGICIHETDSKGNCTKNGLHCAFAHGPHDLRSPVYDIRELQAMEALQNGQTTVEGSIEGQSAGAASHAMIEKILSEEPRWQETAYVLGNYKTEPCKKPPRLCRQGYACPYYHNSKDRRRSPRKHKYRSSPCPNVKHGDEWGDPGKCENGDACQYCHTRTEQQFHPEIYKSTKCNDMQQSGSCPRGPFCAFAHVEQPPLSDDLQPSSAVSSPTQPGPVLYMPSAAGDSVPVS
Oligonucleotide | bound/input enrichment
CCUCUGCUGCGAGAAGUUCUGGAGAAGCAGCCAGUGCUAAGCCAGACCGAGGCCCGCGACUCCGCCGAACGCUGCAUGCGAGUGCUGUACUACCGAGAUGCCCGUUCUUACAACCGGUUU | 0.0645 ratio
UCUACAUAUUUUGCCUGGUGCCCAGAUGGUGAGCAUAUCUUAACAGCCACAUGUGCUCCCCGGUUACGUGUUAAUAAUGGGUAUAAGAUCUGGCAUUAUACUGGCUCUCUUUUGCAUAAG | 0.185 ratio
AACCCAUGGCUGCUUUGUGUCACCUCAGUGACUUACAGUCCCCCUUGGCAUUUAGUUGGUACCCGAGCCAGUCAUCCUUAACAAAUCUUUUCACAUUUUAUUUCUUUCACAUGUAGUCAU | 8.8 ratio
UUAAUGCCAAUUGUAUAUACACCGACGGUUGGUCUUGCCUGCUCCCAGUAUGGACACAUCUUCCGAAGACCUAAGGGAUUAUUUAUUUCGAUCUCAGACAGAGGUCAUGUUAGAUCAAUU | 0.368 ratio
UCUACGUCUUCAUCUAUGCAGCCAGGCCCUGUGUCAAAUCAGUCACUUUUAUCAGAAUCUGCCGCACCUUCCCAAGUGGACAGUACAUCUGUGGACAAAGCAGUAUCUGAGACAGAAGAC | 0.298 ratio
GUUAUCAUUUGUGUGGAAGGAAAAGAAUUUCCUUGCCAUAGAGCUGUGCUCUCAGCCUGCCGCAGCUACUUCAGAGCUAUGUUUUGUAAUGACCACAGGGAAAGCCGAGAAAUGUUGGUU | 0.238 ratio
GCAGGGCAAGAGGAUUAUGACAGACUACGACCGCUAAGUUAUCCACAGACAGAUGUUUUUCCCGUAUGUUUCUCAGUGGUCUCUCCAUCCUCAUUUGAAAAUGUGAAAGAAAAGUGGGUG | 0.27 ratio
UGUAGUCAGUGUGGAAGAGCCUUCAGCCAGAAGCAAUACCUCAUUAAACACCAGAAUAUCCACCGUGGGAAGAAACCUUUUAAGUGUAAUGAGUGUGGUAAGGCUUUUAGCCAGAAAGAA | 0.243 ratio

Sample 3 — technique: protein-binding microarray; form: hairpin DNA; medium: in vitro; tested at: not given; baseline: not given; reading: higher = stronger binding
Target: Runt-related transcription factor 3, Runt domain (RUNX3, Homo sapiens, UniProt Q13761, residues 53-186)
UniProt Q13761, sequence (53-186, looked up): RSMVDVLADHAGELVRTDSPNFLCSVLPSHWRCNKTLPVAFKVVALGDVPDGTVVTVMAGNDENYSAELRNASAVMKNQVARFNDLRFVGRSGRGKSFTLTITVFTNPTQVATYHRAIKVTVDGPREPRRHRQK
Notes: whole hairpin DNA, median over replicate spots
Oligonucleotide | median fluorescence [a.u.]
GAGGCCCAACCGCAACGGCCTCCTGGCCGTTGCGGTTGGGCCTCACACTC (5mC at 16) | 10400
GAGGCCTGTCGCGGTTGGCCTCCTGGCCAACCGCGACAGGCCTCACACTC | 6190
GAGGCCTGTTGCGCGTGGCCTCCTGGCCACGCGCAACAGGCCTCACACTC (5mC at 14 30) | 5070
GAGGCCGGTCGCGGTTGGCCTCCTGGCCAACCGCGACCGGCCTCACACTC | 6620
GAGGCCCAACCGCCGCAGCCTCCTGGCTGCGGCGGTTGGGCCTCACACTC (5mC at 14) | 5810
GAGGCCTGTCGCCGTTGGCCTCCTGGCCAACGGCGACAGGCCTCACACTC (5mC at 13 31) | 4940
GAGGCCTGTCGCGGTTGGCCTCCTGGCCAACCGCGACAGGCCTCACACTC (5mC at 10) | 7430
GAGGCCTGTCGCGGCGGGCCTCCTGGCCCGCCGCGACAGGCCTCACACTC | 5940

Sample 4 — effect on: peptide-MHC binding; form: peptide; tested at: concentration not given
Target: HLA class I histocompatibility antigen, A alpha chain, allele A*25:01 (Homo sapiens, UniProt P04439)
Molecule | binding
TRAPAPFPL | inactive
VIMWYNYLF | inactive
SQFNHWFGE | inactive
FTFDLTALK | inactive
SLVAIHLAC | inactive
RLMRTNFLI | inactive
RRRPVTRPL | inactive
MTRGLLGSY | active
SSLRYGNVL | inactive
LICYQIEYI | inactive
RTVSVMFFI | inactive
YMMDGNECP | inactive
EKDSNHNVL | inactive
DEFLKVPEW | inactive
DHIPIINTL | inactive
FQWHEAMFL | inactive
VKINIFPLY | inactive

Single results of other studies
SMILES | cell line | assay | conditions | measurement | value
CC(C)(C)c1cnc(CSc2cnc(NC(=O)C3CCN(CCCCCSc4cccc5c4CN(C4CCC(=O)NC4=O)C5=O)CC3)s2)o1 (stereo not shown) | HEK293T | trypan blue exclusion | 50 nM, 24 h | viability | 97.4% and 98% and 94.3%

Excerpt of the above (sample 4):
Molecule | binding
VIMWYNYLF | inactive
SQFNHWFGE | inactive
FTFDLTALK | inactive
